Measurements collected from several papers.
Numbered parts are unrelated; each lists some results of a single study. “And” joins repeats or separate records; there may be more than shown.
Chain of UniProt Q96PY6 (whole entry, looked up): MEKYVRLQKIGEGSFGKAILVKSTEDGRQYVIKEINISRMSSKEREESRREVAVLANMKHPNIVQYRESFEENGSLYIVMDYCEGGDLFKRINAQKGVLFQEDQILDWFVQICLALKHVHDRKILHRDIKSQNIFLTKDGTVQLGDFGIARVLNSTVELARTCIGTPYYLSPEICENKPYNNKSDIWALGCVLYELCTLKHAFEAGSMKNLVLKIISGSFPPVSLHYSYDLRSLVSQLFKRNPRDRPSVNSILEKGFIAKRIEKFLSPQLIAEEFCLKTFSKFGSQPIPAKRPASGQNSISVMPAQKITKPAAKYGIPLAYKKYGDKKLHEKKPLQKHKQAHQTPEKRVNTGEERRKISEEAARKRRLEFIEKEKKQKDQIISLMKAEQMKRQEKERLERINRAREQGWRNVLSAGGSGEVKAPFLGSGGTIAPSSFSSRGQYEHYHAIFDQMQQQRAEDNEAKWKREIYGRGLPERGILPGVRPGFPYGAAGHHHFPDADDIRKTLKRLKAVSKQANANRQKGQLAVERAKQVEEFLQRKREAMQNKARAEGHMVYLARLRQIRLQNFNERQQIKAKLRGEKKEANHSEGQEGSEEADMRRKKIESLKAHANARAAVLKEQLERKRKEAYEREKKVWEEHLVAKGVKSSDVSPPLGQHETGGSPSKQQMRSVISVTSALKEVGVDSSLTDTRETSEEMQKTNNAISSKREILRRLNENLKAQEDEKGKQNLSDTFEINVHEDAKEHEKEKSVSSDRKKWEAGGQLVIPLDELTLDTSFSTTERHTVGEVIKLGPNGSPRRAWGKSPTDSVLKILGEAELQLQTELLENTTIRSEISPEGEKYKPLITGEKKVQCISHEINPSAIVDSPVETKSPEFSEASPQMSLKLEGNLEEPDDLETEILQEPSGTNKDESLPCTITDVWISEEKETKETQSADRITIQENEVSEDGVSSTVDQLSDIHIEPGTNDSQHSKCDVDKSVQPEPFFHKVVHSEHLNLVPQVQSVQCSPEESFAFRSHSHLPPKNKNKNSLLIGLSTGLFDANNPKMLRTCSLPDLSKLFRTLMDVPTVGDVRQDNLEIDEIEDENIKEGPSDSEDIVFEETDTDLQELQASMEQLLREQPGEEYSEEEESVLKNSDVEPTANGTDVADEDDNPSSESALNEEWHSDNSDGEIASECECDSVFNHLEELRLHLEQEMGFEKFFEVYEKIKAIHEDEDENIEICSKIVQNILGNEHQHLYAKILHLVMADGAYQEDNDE
Chain of UniProt P52333 (whole entry, looked up): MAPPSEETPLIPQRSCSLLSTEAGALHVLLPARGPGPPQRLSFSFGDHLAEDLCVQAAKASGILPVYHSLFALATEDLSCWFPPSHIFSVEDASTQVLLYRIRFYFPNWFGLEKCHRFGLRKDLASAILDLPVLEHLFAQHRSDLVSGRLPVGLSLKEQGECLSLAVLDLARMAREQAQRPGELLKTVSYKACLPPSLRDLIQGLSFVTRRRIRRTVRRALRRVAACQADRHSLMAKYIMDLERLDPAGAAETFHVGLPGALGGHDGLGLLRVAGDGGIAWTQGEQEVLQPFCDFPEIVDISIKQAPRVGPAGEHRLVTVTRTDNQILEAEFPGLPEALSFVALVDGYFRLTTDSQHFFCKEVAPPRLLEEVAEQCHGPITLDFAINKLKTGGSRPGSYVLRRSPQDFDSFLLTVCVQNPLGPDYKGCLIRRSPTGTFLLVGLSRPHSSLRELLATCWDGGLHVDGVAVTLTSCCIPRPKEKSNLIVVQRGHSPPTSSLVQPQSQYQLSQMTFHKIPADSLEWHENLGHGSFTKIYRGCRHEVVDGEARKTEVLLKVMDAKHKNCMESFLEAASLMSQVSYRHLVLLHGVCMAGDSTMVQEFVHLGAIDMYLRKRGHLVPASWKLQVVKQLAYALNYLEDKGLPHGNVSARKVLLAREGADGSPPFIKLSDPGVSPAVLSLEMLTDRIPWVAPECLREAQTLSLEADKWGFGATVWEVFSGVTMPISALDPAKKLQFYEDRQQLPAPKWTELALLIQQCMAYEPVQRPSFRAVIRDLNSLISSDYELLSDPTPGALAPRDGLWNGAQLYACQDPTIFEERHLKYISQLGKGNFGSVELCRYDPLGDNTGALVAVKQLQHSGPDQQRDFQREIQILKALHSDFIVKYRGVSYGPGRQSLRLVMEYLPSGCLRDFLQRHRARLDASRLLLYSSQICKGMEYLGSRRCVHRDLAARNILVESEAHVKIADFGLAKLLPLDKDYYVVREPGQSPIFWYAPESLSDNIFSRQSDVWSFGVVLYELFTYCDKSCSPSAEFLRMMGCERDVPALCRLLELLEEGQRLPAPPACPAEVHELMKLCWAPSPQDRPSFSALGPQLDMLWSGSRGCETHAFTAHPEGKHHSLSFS
Chain of UniProt P42685 (whole entry, looked up): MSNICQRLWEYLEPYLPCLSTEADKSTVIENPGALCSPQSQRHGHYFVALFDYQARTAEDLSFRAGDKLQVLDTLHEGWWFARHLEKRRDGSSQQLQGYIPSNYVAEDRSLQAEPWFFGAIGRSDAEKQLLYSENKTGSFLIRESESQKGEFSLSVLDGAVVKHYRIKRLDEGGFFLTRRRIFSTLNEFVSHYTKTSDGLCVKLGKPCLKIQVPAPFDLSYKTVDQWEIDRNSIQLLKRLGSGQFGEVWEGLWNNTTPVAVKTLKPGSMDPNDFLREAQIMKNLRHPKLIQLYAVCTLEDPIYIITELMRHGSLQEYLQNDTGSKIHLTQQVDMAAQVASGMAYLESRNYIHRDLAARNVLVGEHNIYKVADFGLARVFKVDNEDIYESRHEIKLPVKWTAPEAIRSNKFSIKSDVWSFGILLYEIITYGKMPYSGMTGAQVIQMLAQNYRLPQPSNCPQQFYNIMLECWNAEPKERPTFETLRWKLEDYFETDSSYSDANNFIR
Chain of UniProt P22607 (whole entry, looked up): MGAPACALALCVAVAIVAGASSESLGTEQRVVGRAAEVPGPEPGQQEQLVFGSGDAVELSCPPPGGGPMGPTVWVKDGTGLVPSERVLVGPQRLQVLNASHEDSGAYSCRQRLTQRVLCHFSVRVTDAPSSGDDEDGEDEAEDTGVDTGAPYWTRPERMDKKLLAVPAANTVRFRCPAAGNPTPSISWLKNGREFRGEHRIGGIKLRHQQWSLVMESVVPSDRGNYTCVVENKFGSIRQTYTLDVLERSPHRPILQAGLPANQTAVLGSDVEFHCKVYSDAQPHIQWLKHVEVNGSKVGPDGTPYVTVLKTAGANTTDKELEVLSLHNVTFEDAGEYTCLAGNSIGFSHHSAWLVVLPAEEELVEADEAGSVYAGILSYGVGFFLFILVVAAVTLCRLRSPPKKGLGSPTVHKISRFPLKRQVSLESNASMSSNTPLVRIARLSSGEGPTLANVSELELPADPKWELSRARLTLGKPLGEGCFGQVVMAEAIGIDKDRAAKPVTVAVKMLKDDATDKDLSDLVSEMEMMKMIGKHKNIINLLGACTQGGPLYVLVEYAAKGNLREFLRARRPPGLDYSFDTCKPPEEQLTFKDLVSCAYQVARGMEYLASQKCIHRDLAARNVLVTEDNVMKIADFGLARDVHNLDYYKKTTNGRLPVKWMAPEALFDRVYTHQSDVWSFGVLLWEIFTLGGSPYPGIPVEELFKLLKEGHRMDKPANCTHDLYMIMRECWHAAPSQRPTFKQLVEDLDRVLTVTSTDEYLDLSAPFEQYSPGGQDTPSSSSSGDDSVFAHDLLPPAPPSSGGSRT
Chain of UniProt P27361 (whole entry, looked up): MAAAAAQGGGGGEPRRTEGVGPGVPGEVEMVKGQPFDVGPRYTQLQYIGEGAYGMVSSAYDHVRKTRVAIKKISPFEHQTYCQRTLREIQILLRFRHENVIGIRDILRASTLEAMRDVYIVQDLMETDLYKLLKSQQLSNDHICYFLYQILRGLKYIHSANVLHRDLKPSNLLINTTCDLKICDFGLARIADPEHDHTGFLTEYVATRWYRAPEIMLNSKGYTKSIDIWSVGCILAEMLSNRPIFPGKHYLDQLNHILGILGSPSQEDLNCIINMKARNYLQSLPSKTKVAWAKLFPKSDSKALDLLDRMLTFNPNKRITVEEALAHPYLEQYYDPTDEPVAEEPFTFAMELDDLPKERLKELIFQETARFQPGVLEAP
Chain of UniProt P36507 (whole entry, looked up): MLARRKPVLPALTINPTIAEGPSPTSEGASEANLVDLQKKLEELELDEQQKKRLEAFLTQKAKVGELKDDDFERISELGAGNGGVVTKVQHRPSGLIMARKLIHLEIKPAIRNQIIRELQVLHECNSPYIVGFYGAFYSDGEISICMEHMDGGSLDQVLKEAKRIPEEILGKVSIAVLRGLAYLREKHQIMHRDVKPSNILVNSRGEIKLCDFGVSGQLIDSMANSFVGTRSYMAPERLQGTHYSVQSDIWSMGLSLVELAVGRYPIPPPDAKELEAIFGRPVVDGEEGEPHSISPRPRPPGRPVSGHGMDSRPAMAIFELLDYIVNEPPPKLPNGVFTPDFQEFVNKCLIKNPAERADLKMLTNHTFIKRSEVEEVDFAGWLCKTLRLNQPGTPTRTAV
Chain of UniProt P06239 (whole entry, looked up): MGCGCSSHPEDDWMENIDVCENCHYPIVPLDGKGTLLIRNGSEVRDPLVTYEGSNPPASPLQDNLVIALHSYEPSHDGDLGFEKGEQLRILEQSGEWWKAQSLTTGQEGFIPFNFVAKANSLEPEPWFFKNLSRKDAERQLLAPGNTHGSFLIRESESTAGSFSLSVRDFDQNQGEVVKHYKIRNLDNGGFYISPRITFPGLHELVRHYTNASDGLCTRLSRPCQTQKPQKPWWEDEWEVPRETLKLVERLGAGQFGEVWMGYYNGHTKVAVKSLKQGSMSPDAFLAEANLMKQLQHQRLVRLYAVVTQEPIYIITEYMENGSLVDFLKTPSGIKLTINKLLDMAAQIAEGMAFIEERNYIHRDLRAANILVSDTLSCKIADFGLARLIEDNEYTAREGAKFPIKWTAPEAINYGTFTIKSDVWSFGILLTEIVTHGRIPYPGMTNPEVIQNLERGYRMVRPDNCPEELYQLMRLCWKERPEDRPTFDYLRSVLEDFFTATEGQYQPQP

Series 1
Cell line: mouse MPNST tumor cells
Technique: high-content nuclear imaging
Refers to: cell number
Concentration: 10 µM
Time: 12 h
Notes: mean of 2 replicates
Reference: plate mean
Direction: higher = more cells
Structure (SMILES) | nuclei count
COC1C(O)CC(=O)OC(C)CC=CC=CC(OC2CCC(N(C)C)C(C)O2)C(C)CC(CC=O)C1OC1OC(C)C(OC2CC(C)(O)C(O)C(C)O2)C(N(C)C)C1O (stereo not drawn) | 3.65 z-score
CCCCCCCCCCCCCCCc1cccc(OCC(=O)NCCO)c1 | 0.577 z-score
O=C(NCC(=O)N1CCCCC1)Nc1ccc2nnsc2c1 | 1.24 z-score
NC(=O)n1c(O)c(C(=O)c2cccs2)c2cc(Cl)ccc21 | -0.979 z-score
OC(Cn1cncn1)(Cn1cncn1)c1ccc(F)cc1F | 1.09 z-score
O=C1COc2nccc(-c3ccccc3F)c2CN1Cc1cc(C(F)(F)F)cc(C(F)(F)F)c1 | -0.154 z-score
CC(=O)O[C@]1(C(C)=O)CC[C@H]2[C@@H]3C=C(Cl)C4=CC(=O)[C@@H]5C[C@@H]5[C@]4(C)[C@H]3CC[C@@]21C | 3.29 z-score

Series 2
Cell line: sample B colorectal tumour organoid
Concentration: 1 µM
Reference: DMSO
SMILES | viability
CCN(CC)S(=O)(=O)Nc1cccc(-c2ccc3c(NC(=O)C4CC4)n[nH]c3c2)c1 | 102%
O=C(NCc1ccccc1)c1ccc(S(=O)(=O)NCc2ccccc2)cc1 | 95.9%
Cc1ncc(-c2cc(Cl)ccc2F)cc1-n1c(=O)n(CC(N)=O)c2ccccc21 | 114%
COc1cc(Nc2ccnc3ccc(Br)cc23)cc(OC)c1OC | 109%
CC(=O)NCC(=O)N1[C@@H]2CC[C@H]1c1ccc(Nc3ncc(C(F)(F)F)c(NC4CCC4)n3)cc12 | 36.1% and 33.7%

Series 3
Compound: CC#CC(=O)Nc1cc2c(Nc3ccc(F)c(Cl)c3)ncnc2cn1
Observed: enzyme activity
Mode: inhibitor
Concentration: 0.5 µM
Reference: control
target | remaining activity
JAK3 (Homo sapiens, UniProt P52333) | -0.181%
LCK (Homo sapiens, UniProt P06239) | 92.2%
MAP2K2 (Homo sapiens, UniProt P36507) | 106%
MAPK3 (Homo sapiens, UniProt P27361) | 100%
ARAF (Homo sapiens, UniProt P10398) | 74.1%
TAOK2 (Homo sapiens, UniProt Q9UL54) | 106%
MAP3K5 (Homo sapiens, UniProt Q99683) | 98.9%
EPHA3 (Homo sapiens, UniProt P29320) | 99.8%
NEK1 (Homo sapiens, UniProt Q96PY6) | 105%
FGFR3 (Homo sapiens, UniProt P22607) | 108%
ULK2 (Homo sapiens, UniProt Q8IYT8) | 96.7%
NEK6 (Homo sapiens, UniProt Q9HC98) | 97.5%
MST1R (Homo sapiens, UniProt Q04912) | 104%
FRK (Homo sapiens, UniProt P42685) | 102%

Series 4
Species: mouse
Medium: microsomes or S9
Concentration: 2 µM
Time: 0.5 h
Compound | remaining compound
O=c1ccc2cnc(Nc3cnn(C4CCNCC4)c3)nc2n1C1CCCCCC1 | 21.6%
CCC(=O)N(CCC1(c2ccc(C)cc2)CCOC(C)(C)C1)Cc1ccccc1 (stereo not drawn) | 0.12%
O=C(NCC1(c2cccs2)CCOCC1)c1ccc2ncsc2c1 | 3.34%
O=C(Cn1c(=O)oc2ccccc21)N[C@@H]1CCN(c2cnccn2)C[C@H]1O | 26.6%

A few entries again (series 3):
target | remaining activity
JAK3 (Homo sapiens, UniProt P52333) | -0.181%
NEK6 (Homo sapiens, UniProt Q9HC98) | 97.5%
